# Published values pooled from the literature.
# Compare with care: the assays were run in different laboratories.
SMILES,test system,conditions,measurement,value
CCOc1c(O)cc(Br)c2c1CN1CCc3cc(OCC(F)F)c(O)cc3[C@@H]1C2,rat liver S9,"2 µM, pH 7.4",scaled intrinsic clearance,902 mL/min/kg
O=C(O)Cc1ccccc1Nc1c(Cl)cccc1Cl,human liver microsomes,"1 µM, pH 7.4",scaled intrinsic clearance,226 mL/min/kg
CCOc1ccc2ccc(=O)oc2c1,hamster hepatocytes,,scaled hepatic intrinsic clearance,1440 mL/min/kg
O=c1ccc2ccc(O)cc2o1,cryopreserved SD rat hepatocytes,1 µM,scaled intrinsic clearance,284 mL/min/kg
N#Cc1ccc(Nc2nc(N)cc(Oc3c(F)cc(-c4ccc(C#N)cc4)cc3F)n2)cc1,human liver microsomes,1 µM,scaled intrinsic clearance,1.08 mL/min/kg
NC(=O)c1cn(-c2ccnc(N)n2)c2cc(C#CC3(O)CCCCC3)ccc12,CD-1 mouse liver microsomes,"1 µM, pH 7.4",scaled CLint,106 mL/min/kg
Cc1nc2ccc(OCc3ccc(C(F)(F)F)cc3)cc2[nH]1,human liver S9,"1 µM, pH 7.4",scaled intrinsic clearance,554 mL/min
O=C(O)Cc1ccccc1Nc1c(Cl)cccc1Cl,CD-1 mouse liver microsomes,"1 µM, pH 7.4",scaled CLint,212 mL/min/kg
CN(C)c1ccc2c(c1)c(=O)n(-c1ccc(C[C@H](NC(=O)c3c(Cl)cccc3Cl)C(=O)O)cc1)c(=O)n2C,cynomolgus sandwich-cultured hepatocytes,,scaled biliary intrinsic clearance,18.1 mL/min/kg

# For quick reference, copied from above:
SMILES,test system,conditions,measurement,value
CCOc1ccc2ccc(=O)oc2c1,hamster hepatocytes,,scaled hepatic intrinsic clearance,1440 mL/min/kg
